Results pooled from the literature.
Protocols differ between the studies behind these lines. ± gives the spread as reported.
OPRD1: Delta-type opioid receptor (OPRD1, Homo sapiens, UniProt P41143)
UniProt P41143, sequence (whole entry, looked up): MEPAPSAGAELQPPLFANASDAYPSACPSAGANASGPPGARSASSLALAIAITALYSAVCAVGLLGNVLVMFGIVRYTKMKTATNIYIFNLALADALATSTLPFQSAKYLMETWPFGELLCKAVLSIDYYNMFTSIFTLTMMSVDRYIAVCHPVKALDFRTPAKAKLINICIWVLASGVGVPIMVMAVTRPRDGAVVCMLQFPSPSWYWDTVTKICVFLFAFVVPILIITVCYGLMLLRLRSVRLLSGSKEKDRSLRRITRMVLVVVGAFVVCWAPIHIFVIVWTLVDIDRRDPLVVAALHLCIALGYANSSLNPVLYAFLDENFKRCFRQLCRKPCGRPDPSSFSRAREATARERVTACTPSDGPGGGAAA
UniProt P41146, sequence (whole entry, looked up): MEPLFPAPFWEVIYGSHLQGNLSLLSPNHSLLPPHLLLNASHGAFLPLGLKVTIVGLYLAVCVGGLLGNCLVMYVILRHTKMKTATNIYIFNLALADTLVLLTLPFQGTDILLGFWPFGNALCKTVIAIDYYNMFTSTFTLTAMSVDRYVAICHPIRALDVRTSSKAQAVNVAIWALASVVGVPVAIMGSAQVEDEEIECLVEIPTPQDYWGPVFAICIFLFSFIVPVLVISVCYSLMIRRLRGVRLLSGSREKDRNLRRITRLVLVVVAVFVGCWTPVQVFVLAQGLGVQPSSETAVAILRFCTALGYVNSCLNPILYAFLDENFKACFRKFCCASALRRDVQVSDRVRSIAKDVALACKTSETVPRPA
UniProt P48546, sequence (whole entry, looked up): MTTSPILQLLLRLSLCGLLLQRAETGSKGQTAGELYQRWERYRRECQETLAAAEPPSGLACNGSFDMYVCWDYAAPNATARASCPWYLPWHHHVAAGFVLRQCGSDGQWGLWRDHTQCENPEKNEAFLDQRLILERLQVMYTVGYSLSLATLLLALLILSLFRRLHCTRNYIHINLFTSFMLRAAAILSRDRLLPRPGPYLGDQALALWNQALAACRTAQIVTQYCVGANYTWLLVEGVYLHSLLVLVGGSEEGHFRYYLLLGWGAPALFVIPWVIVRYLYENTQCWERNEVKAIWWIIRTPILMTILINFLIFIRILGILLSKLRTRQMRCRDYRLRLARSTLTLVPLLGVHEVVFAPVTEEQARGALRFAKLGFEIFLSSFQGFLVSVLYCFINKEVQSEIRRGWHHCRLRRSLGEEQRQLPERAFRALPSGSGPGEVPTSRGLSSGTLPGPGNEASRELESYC
UniProt A0A125YHX7, sequence (whole entry, looked up): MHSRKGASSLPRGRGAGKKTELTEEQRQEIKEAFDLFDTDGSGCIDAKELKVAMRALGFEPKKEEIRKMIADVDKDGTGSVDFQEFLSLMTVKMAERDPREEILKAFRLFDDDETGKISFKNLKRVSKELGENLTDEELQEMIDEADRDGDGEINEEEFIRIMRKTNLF
UniProt P43220, sequence (whole entry, looked up): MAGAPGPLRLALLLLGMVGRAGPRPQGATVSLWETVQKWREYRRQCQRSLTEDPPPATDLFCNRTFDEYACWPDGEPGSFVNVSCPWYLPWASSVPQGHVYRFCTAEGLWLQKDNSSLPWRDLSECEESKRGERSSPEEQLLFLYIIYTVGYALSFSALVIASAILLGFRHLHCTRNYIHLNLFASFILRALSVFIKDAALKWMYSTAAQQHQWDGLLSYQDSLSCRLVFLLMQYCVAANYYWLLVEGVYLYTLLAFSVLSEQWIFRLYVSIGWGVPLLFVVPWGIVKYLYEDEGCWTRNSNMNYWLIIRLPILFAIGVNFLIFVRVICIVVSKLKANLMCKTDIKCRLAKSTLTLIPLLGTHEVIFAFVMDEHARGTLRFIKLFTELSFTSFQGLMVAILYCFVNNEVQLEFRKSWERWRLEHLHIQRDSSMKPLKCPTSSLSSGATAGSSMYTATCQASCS
UniProt P02769, sequence (whole entry, looked up): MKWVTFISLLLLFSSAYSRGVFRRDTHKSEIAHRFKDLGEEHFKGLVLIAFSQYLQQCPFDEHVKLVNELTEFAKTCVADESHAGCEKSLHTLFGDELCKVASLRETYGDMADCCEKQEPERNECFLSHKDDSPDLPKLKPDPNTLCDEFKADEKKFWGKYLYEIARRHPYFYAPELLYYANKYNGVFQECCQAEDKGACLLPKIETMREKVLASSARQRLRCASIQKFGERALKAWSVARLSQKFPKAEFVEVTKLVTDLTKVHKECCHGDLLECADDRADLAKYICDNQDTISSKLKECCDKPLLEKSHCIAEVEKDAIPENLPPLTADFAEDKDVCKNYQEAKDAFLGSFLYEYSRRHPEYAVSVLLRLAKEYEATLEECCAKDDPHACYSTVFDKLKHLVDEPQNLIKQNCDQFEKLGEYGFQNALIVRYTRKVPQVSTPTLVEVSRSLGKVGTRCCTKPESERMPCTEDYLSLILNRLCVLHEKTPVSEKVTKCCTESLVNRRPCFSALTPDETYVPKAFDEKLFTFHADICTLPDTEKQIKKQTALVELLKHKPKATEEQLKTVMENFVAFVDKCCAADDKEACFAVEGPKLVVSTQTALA
UniProt P35372, sequence (whole entry, looked up): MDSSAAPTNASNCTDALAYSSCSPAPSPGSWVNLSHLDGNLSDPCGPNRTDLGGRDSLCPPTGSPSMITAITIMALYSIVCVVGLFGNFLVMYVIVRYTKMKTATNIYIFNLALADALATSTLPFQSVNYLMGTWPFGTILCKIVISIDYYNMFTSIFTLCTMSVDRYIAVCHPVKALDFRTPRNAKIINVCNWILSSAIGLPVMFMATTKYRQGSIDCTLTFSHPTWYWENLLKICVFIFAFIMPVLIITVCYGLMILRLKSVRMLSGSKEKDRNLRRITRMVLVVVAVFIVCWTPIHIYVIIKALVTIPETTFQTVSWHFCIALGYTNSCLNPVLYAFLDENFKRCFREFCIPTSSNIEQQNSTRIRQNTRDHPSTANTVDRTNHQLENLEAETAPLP

| Compound | target | assay | system | setting | quantity | result |
| --- | --- | --- | --- | --- | --- | --- |
| CC[C@H](C)[C@H](NC(=O)[C@H](C)NC(=O)[C@H](CCC(=O)O)NC(C)=O)C(=O)N[C@H](C(=O)N[C@@H](CCCNC(=N)N)C(=O)N[C@H](C(=O)N[C@H]1CCCC=CCCC[C@@H](C(=O)N[C@@H](Cc2ccccc2)C(=O)N[C@H](C(=O)N[C@@H](Cc2c[nH]cn2)C(=O)N[C@@H](Cc2ccccc2)C(=O)N[C@@H](CCCNC(=N)N)C(=O)N[C@H](C(=O)NCC(N)=O)[C@@H](C)CC)[C@@H](C)CC)NC(=O)[C@H](CC(C)C)NC(=O)[C@H](CCC(N)=O)NC(=O)[C@H](CCC(N)=O)NC1=O)[C@@H](C)CC)[C@@H](C)CC | Gag-Pol polyprotein, integrase (gag-pol, Human immunodeficiency virus type 1 group M subtype B, UniProt P04585) | 3′-end processing, inhibitor | HIV-1 |  | IC50 | 4900 ± 600 nM |
| CC(C)C[C@H](NC(=O)[C@H](CO[C@@H]1O[C@H](CO)[C@@H](O[C@@H]2O[C@H](CO)[C@H](O)[C@H](O)[C@H]2O)[C@H](O)[C@H]1O)NC(=O)[C@H](CCCCN)NC(=O)[C@H](CC(C)C)NC(=O)CNC(=O)[C@H](CCCCN)NC(=O)[C@H](CCC(=O)O)NC(=O)CNC(=O)[C@H](CC(C)C)NC(=O)[C@H](CC(N)=O)NC(=O)[C@@H]1CCCN1C(=O)[C@H](CC(C)C)NC(=O)[C@H](Cc1ccccc1)NC(=O)CNC(=O)[C@H](NC(=O)[C@@H](N)Cc1ccc(O)cc1)[C@H](C)O)C(N)=O | OPRD1 | ligand displacement, radioligand |  | pH 7.5, cell membranes | Ki | 7 nM |
| CCCCCCCCCCCCCCCC(=O)N[C@@H](CCC(=O)NCCOCCOCCC(=O)NCCOCCOCCC(=O)NCCCC[C@H](NC(=O)[C@H](CC(=O)O)NC(=O)[C@H](CC(C)C)NC(=O)[C@H](Cc1ccc(O)cc1)NC(=O)[C@H](CCCCN)NC(=O)[C@H](CO)NC(=O)[C@H](Cc1ccc(O)cc1)NC(=O)[C@H](CC(=O)O)NC(=O)[C@H](CO)NC(=O)[C@@H](NC(=O)[C@H](Cc1ccccc1)NC(=O)[C@@H](NC(=O)CNC(=O)[C@H](CCC(N)=O)NC(=O)[C@@H](CO)NC(=O)[C@@H](N)Cc1c[nH]cn1)[C@@H](C)O)[C@@H](C)O)C(=O)N[C@@H](CCCNC(=N)N)C(=O)N[C@@H](CCCNC(=N)N)C(=O)N[C@@H](C)C(=O)N[C@@H](CCC(N)=O)C(=O)N[C@@H](CC(=O)O)C(=O)N[C@@H](Cc1ccccc1)C(=O)N[C@H](C(=O)N[C@@H](CCC(N)=O)C(=O)N[C@@H](Cc1c[nH]c2ccccc12)C(=O)N[C@@H](CC(C)C)C(=O)N[C@@H](CCCC)C(=O)N[C@@H](CC(N)=O)C(=O)N[C@H](C(=O)NCC(=O)NCC(=O)N1CCC[C@H]1C(=O)N[C@@H](CO)C(=O)N[C@@H](CO)C(=O)NCC(=O)N[C@@H](C)C(=O)N1CCC[C@H]1C(=O)N1CCC[C@H]1C(=O)N1CCC[C@H]1C(=O)N[C@@H](CO)C(N)=O)[C@@H](C)O)C(C)C)C(=O)O | GLP1R (Homo sapiens, UniProt P43220) | reporter gene, agonist, luciferase |  |  | EC50 | 1.14 nM |
| CC(=O)N[C@@H](Cc1c[nH]cn1)C(=O)N[C@@H](CCCNC(=N)N)C(=O)N[C@@H](CCCNC(=N)N)C(=O)N[C@@H](CCCNC(=N)N)C(=O)N[C@@H](CCCNC(=N)N)C(=O)N[C@@H](CCCNC(=N)N)C(=O)N[C@@H](CCCNC(=N)N)C(=O)N[C@@H](CCCNC(=N)N)C(=O)N[C@@H](CCCNC(=N)N)C(=O)N[C@@H](Cc1c[nH]cn1)C(N)=O | Albumin (ALB, Bos taurus, UniProt P02769) | fluorescence quenching |  | added: site competitor digitoxin | Kb | 730000 M⁻¹ |
| CCCCCCCCCCCCCCCC(=O)N[C@@H](CCC(=O)NCCCC[C@H](NC(=O)[C@H](CC(=O)O)NC(=O)[C@H](CO)NC(=O)[C@@H](NC(=O)[C@H](Cc1ccccc1)NC(=O)[C@@H](NC(=O)CNC(=O)[C@H](CCC(N)=O)NC(=O)[C@H](C)NC(=O)[C@@H](Cc1ccc(O)cc1)NC(C)=O)[C@@H](C)O)[C@@H](C)O)C(=O)N[C@@H](CO)C(=O)N[C@@H](CCCCN)C(=O)N[C@@H](Cc1ccc(O)cc1)C(=O)N[C@@H](CC(C)C)C(=O)N[C@@H](CC(=O)O)C(=O)N[C@@H](CCC(=O)O)C(=O)N[C@@H](CCCNC(=N)N)C(=O)N[C@@H](C)C(=O)N[C@@H](C)C(=O)N[C@@H](CCC(N)=O)C(=O)N[C@@H](CC(=O)O)C(=O)N[C@@H](Cc1ccccc1)C(=O)N[C@H](C(=O)N[C@@H](CCC(N)=O)C(=O)N[C@@H](Cc1c[nH]c2ccccc12)C(=O)N[C@@H](CC(C)C)C(=O)N[C@@H](CC(C)C)C(=O)N[C@@H](CCC(=O)O)C(=O)NCC(=O)NCC(=O)N1CCC[C@H]1C(=O)N[C@@H](CO)C(=O)N[C@@H](CO)C(=O)NCC(=O)N[C@@H](C)C(=O)N1CCC[C@H]1C(=O)N1CCC[C@H]1C(=O)N1CCC[C@H]1C(=O)N[C@@H](CO)C(N)=O)C(C)C)C(=O)O | GIPR (Homo sapiens, UniProt P48546) | reporter gene, agonist, luciferase |  |  | EC50 | 0.0035 nM |
| CC(C)C[C@H](NC(=O)[C@H](CO)NC(=O)[C@H](CCCCN)NC(=O)[C@H](CC(C)C)NC(=O)CNC(=O)[C@H](CCCCN)NC(=O)[C@H](CCC(=O)O)NC(=O)CNC(=O)[C@H](CC(C)C)NC(=O)[C@H](CC(N)=O)NC(=O)[C@@H]1CCCN1C(=O)[C@H](CC(C)C)NC(=O)[C@H](Cc1ccccc1)NC(=O)CNC(=O)[C@H](NC(=O)[C@@H](N)Cc1ccc(O)cc1)[C@H](C)O)C(N)=O | OPRD1 | ligand displacement, radioligand |  | pH 7.5, cell membranes | Ki | 13 nM |
| CC[C@H](C)[C@H](NC(=O)[C@H](CC(C)C)NC(=O)[C@H](CC(C)C)NC(=O)CNC(=O)[C@H](CCCCN)NC(=O)[C@H](C)NC(=O)[C@H](CC(C)C)NC(=O)[C@H](CC(C)C)NC(=O)[C@H](CCCCN)NC(=O)[C@H](Cc1c[nH]c2ccccc12)NC(=O)[C@@H](N)CC(N)=O)C(=O)N[C@@H](CCCNC(=N)N)C(=O)N[C@@H](CCC(=O)O)C(=O)N[C@@H](CCCNC(=N)N)C(=O)N[C@@H](CC(C)C)C(=O)N[C@@H](CCCCN)C(=O)N[C@@H](CCCNC(=N)N)C(=O)O | Centrin-1, C-terminal domain (CEN1, Toxoplasma gondii, UniProt A0A125YHX7) | isothermal titration calorimetry |  | pH 7.5, 25 °C, 5 mM EGTA | Kd | 50.1 ± 9.7 nM |
| Cc1cc(O)cc(C)c1C[C@H](N)C(=O)NCC(=O)NCC(=O)N[C@@H](Cc1ccccc1)C(=O)N[C@H](C(=O)NCC(=O)N[C@@H](C)C(=O)N[C@@H](CCCNC(=N)N)C(=O)N[C@@H](CCCCN)C(=O)N[C@@H](CO)C(=O)N[C@@H](C)C(=O)N[C@@H](CCCNC(=N)N)C(=O)N[C@@H](CCCCN)C(N)=O)[C@@H](C)O | Nociceptin receptor (OPRL1, Homo sapiens, UniProt P41146) | GTPγS binding, agonist, radiometric |  | cell membranes | EC50 | 0.347 nM |
| CCCC[C@@H]1NC(=O)[C@H](Cc2ccc(F)cc2)NC(=O)[C@H](CCC(N)=O)NC(=O)[C@H](Cc2ccc(O)cc2)NC(=O)[C@H](Cc2c[nH]c3ccccc23)NC(=O)[C@@H](C)NC(=O)[C@H](CCC(=O)N[C@@H](CCCCN)C(N)=O)NC(=O)[C@@H](C)NC(=O)[C@@H](C)NC(=O)[C@@H](C)NC1=O | Gag polyprotein, p6 deleted (gag, Human immunodeficiency virus type 1 group M subtype B, UniProt P03347) | fluorescence anisotropy | HIV-1 | added: 100 nM fluorescein-labelled peptide | Kd | 800 to 900 nM |
| CC(C)C[C@H](NC(=O)[C@H](CO)NC(=O)[C@H](CCCCN)NC(=O)[C@H](CC(C)C)NC(=O)[C@H](C)NC(=O)[C@H](CCCCN)NC(=O)[C@H](CCC(=O)O)NC(=O)C(C)(C)NC(=O)[C@H](CC(C)C)NC(=O)[C@H](CC(N)=O)NC(=O)[C@@H]1CCCN1C(=O)[C@H](CC(C)C)NC(=O)[C@H](Cc1ccccc1)NC(=O)CNC(=O)[C@H](NC(=O)[C@@H](N)Cc1ccc(O)cc1)[C@H](C)O)C(N)=O | OPRM1 (Homo sapiens, UniProt P35372) | radioligand displacement | CHO membranes | 60 min, pH 7.5, 25 °C, added: 0.25 nM [3H]DAMGO | Ki | 21 ± 2.6 nM |

For quick reference, copied from above:
| Compound | target | assay | system | setting | quantity | result |
| --- | --- | --- | --- | --- | --- | --- |
| CCCCCCCCCCCCCCCC(=O)N[C@@H](CCC(=O)NCCCC[C@H](NC(=O)[C@H](CC(=O)O)NC(=O)[C@H](CO)NC(=O)[C@@H](NC(=O)[C@H](Cc1ccccc1)NC(=O)[C@@H](NC(=O)CNC(=O)[C@H](CCC(N)=O)NC(=O)[C@H](C)NC(=O)[C@@H](Cc1ccc(O)cc1)NC(C)=O)[C@@H](C)O)[C@@H](C)O)C(=O)N[C@@H](CO)C(=O)N[C@@H](CCCCN)C(=O)N[C@@H](Cc1ccc(O)cc1)C(=O)N[C@@H](CC(C)C)C(=O)N[C@@H](CC(=O)O)C(=O)N[C@@H](CCC(=O)O)C(=O)N[C@@H](CCCNC(=N)N)C(=O)N[C@@H](C)C(=O)N[C@@H](C)C(=O)N[C@@H](CCC(N)=O)C(=O)N[C@@H](CC(=O)O)C(=O)N[C@@H](Cc1ccccc1)C(=O)N[C@H](C(=O)N[C@@H](CCC(N)=O)C(=O)N[C@@H](Cc1c[nH]c2ccccc12)C(=O)N[C@@H](CC(C)C)C(=O)N[C@@H](CC(C)C)C(=O)N[C@@H](CCC(=O)O)C(=O)NCC(=O)NCC(=O)N1CCC[C@H]1C(=O)N[C@@H](CO)C(=O)N[C@@H](CO)C(=O)NCC(=O)N[C@@H](C)C(=O)N1CCC[C@H]1C(=O)N1CCC[C@H]1C(=O)N1CCC[C@H]1C(=O)N[C@@H](CO)C(N)=O)C(C)C)C(=O)O | GIPR (Homo sapiens, UniProt P48546) | reporter gene, agonist, luciferase |  |  | EC50 | 0.0035 nM |
